Measurements of several laboratories.
Parts stem from different laboratories: compare values within a part only.

Sample 1 — method: Spec-seq; form: double-stranded DNA, one strand shown; matrix: in vitro; concentration: not given; setting: whole probe, mean of replicates; baseline: not given; direction: lower = stronger binding; all sequences stand within: GAGTCGTCTCGTCAGCAC … CCGTAGAGCACTCAGGTC
Target: POU domain, class 5, transcription factor 1, POU domain (Pou5f1, Mus musculus, UniProt P20263, residues 131-289)
Chain of UniProt P20263 (131-289, looked up): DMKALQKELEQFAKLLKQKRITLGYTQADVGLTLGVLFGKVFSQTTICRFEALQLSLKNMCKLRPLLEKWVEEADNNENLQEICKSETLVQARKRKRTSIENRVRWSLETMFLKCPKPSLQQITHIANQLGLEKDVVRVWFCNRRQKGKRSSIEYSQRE
For `ATGCCAAA`, “relative binding energy” read 0.5 ln ratio.
`ATGCCCCG`: “relative binding energy” 0.725 ln ratio.
Under “relative binding energy”, `ATGCGATA` is recorded as 0.289 ln ratio.
`ATGCGCAC`: “relative binding energy” 0.192 ln ratio.
`GTGCTAAT` — result for “relative binding energy”: -0.262 ln ratio.
Under “relative binding energy”, `AGCTTAAT` is recorded as 0.553 ln ratio.
For `ATGCCATG`, “relative binding energy” read 0.373 ln ratio.

Sample 2 — method: aptamer microarray, sandwich; form: DNA with 2'F-ANA; matrix: in vitro; concentration: 200 nM; added: Cy3 exosite-II aptamer, 400 nM; direction: higher = stronger binding; strand: GGTTGGTGTGGTTGG
Target: Prothrombin, mature alpha-thrombin (F2, Homo sapiens, UniProt P00734)
Setting: whole 15-mer aptamer, many near background
Under “mean fluorescence intensity”, `2'F-ANA at 10 11 13` is recorded as 157 a.u.
For `2'F-ANA at 3 6 7 11 12 13`, “mean fluorescence intensity” read 1090 a.u.
Under “mean fluorescence intensity”, `2'F-ANA at 1 2 5 6 9 12 15` is recorded as 99.4 a.u.
`2'F-ANA at 1 2 5 6 9 12 13 14 15` — result for “mean fluorescence intensity”: 48.1 a.u.
`2'F-ANA at 1 8 10 14 15` — result for “mean fluorescence intensity”: 53.1 a.u.
For `2'F-ANA at 3 7 8 10 11 12 13`, “mean fluorescence intensity” read 601 a.u.
`2'F-ANA at 9 12`: “mean fluorescence intensity” 950 a.u.

Sample 3 — method: protein-binding microarray; form: double-stranded DNA, one strand shown; matrix: in vitro; concentration: 250 nM; setting: 60-bp whole probe; added: salmon DNA 0.4 mg/ml; baseline: random background probes; direction: higher = stronger binding; all sequences stand within: GCCTAGCAC … GTCTTGATTCGCTTGACGCTGCTG
Target: Interferon regulatory factor 5, full length, phosphomimetic (IRF5, Homo sapiens, UniProt Q13568-2, residues 1-514, K96S/S451D/S453D/S456D/S462D)
With `TTAGATAACAGACTGGATTAGTGCTAG` the log fluorescence was -0.0146 z-score.
`GACGGTTTCGGGCTTCGGGACGTGCTA` gave a log fluorescence of 4.63 z-score.
`TTAGAACTGGTGTATCGATTAGTGCTA` gave a log fluorescence of 2.66 z-score.
With `TCATCTCTTTCCTTCTTACTGTGCTAG` the log fluorescence was 1.57 z-score.
The log fluorescence of `GACGGTCTCGGTTTCGGGCCGTGCTAG` is reported as 2.7 z-score.
`GACGATAGCGGGACTGGAGACGTGCTA` gave a log fluorescence of -0.0509 z-score.
`GACGATATCAGTATCGACACGTGCTAG` has a log fluorescence of 4.33 z-score.
The log fluorescence of `TTAGAACAGGGGTTTCGATTAGTGCTA` is reported as 6.13 z-score.
`GACGGTGTCGGGACTGGGGACGTGCTA` gave a log fluorescence of -0.336 z-score.

Mixed results
`PhoQ, residues 284 288 289 292 302 303 STVVAA` has a fold induction of 23.9 (PhoP, residues 12 14 15 18 19 LHHSG (Escherichia coli, UniProt P23836); Sort-seq, measured: YFP reporter; E. coli; PhoQ-PhoP variant library, added: 10 µM Mg2+; baseline: high Mg2+ state, higher = stronger signaling).

Some of these lines once more (sample 1):
`ATGCCCCG`: “relative binding energy” 0.725 ln ratio.
Under “relative binding energy”, `ATGCGATA` is recorded as 0.289 ln ratio.
`ATGCGCAC`: “relative binding energy” 0.192 ln ratio.
`GTGCTAAT` — result for “relative binding energy”: -0.262 ln ratio.
